{"data": "Experimental data pooled from the literature", "note": "Numbered parts are unrelated; each lists some results of a single study."}
{"data": "Study 1", "target": "Sal-like protein 4, full length isoform A (SALL4, Homo sapiens, UniProt Q9UJQ4, residues 1-1053)", "method": "universal PBM", "form": "double-stranded DNA, one strand shown", "medium": "in vitro", "tested at": "600 nM", "notes": "8-mer, flanks averaged, mean of replicates", "reading": "higher = stronger binding", "chain of UniProt Q9UJQ4 (whole entry, looked up)": "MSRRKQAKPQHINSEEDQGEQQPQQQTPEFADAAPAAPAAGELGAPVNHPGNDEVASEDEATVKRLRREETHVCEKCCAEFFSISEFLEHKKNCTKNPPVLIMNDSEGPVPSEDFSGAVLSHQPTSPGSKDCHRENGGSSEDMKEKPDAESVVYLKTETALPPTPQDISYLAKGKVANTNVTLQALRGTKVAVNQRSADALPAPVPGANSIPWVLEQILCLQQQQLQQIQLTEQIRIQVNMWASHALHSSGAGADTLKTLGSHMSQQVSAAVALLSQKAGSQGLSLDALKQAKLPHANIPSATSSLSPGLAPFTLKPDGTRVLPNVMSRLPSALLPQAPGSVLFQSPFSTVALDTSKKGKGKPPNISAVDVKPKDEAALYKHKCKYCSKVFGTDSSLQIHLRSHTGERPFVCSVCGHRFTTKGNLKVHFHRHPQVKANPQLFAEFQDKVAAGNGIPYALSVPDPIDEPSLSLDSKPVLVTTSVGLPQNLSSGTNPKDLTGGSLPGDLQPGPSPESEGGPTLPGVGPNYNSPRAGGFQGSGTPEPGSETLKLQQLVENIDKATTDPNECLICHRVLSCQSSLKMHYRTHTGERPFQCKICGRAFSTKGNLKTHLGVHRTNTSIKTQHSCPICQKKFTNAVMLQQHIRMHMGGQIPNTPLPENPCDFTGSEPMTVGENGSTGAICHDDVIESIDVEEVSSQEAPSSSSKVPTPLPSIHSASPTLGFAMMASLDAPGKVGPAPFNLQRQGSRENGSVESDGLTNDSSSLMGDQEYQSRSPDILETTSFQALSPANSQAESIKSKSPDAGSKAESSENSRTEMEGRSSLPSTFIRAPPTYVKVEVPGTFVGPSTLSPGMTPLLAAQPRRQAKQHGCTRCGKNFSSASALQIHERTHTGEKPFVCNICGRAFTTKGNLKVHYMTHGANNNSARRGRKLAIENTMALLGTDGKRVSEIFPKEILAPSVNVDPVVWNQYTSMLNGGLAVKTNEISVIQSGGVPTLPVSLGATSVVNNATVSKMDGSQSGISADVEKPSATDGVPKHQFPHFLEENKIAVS"}
{"Strand": "GTGTGTTA", "E-score": 0.222}
{"Strand": "CCGGGTGC", "E-score": -0.356}
{"Strand": "ACATAAGA", "E-score": 0.283}
{"Strand": "AAGAATGG", "E-score": -0.00588}
{"Strand": "AACTCTGC", "E-score": -0.159}
{"data": "Study 2", "target": "Histone acetyltransferase KAT6A, both winged helices, GST fusion (KAT6A, Homo sapiens, UniProt Q92794, residues 1-181)", "method": "protein binding microarray", "form": "double-stranded DNA, one strand shown", "medium": "in vitro", "tested at": "not given", "notes": "8-mer, flanks averaged, mean of 2 arrays, mostly near background", "relative to": "not given", "reading": "higher = stronger binding", "Residues (chain)": "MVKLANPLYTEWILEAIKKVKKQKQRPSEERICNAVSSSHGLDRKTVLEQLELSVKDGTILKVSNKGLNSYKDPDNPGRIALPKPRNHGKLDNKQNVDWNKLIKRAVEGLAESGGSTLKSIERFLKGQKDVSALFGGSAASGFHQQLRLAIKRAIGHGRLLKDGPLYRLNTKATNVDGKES"}
{"Strand": "ATAAGCCA", "E-score": -0.225}
{"Strand": "AGTAAATC", "E-score": -0.196}
{"Strand": "CCTACTAG", "E-score": -0.229}
{"Strand": "CTCGTAAA", "E-score": 0.0412}
{"Strand": "AGTGAAAG", "E-score": -0.0513}
{"data": "Study 3", "target": "Interferon regulatory factor 7, full length, phosphomimetic (IRF7, Homo sapiens, UniProt Q92985, residues 1-503, S471D/S472D/S475D/S476D/S477D/S483D/S484D/S487D)", "method": "protein-binding microarray", "form": "double-stranded DNA, one strand shown", "medium": "in vitro", "tested at": "2200 nM top", "notes": "60-bp whole probe", "together with": "salmon DNA 0.4 mg/ml", "relative to": "random background probes", "reading": "higher = stronger binding", "constant ends, left off below": "GCCTAGCAC … GTCTTGATTCGCTTGACGCTGCTG", "chain of UniProt Q92985 (whole entry, unmodified, looked up)": "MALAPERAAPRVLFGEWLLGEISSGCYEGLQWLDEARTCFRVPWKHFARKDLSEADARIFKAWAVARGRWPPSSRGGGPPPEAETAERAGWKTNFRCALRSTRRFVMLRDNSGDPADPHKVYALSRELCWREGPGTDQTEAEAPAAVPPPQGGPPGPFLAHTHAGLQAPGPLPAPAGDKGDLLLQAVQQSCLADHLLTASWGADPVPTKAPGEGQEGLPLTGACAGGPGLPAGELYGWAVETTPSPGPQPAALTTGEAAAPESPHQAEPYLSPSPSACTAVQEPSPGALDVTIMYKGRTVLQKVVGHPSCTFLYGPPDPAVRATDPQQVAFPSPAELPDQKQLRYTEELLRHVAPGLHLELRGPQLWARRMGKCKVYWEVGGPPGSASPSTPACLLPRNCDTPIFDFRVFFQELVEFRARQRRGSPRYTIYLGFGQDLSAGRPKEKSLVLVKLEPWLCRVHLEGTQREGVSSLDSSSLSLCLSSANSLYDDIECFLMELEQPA"}
{"Strand": "TCAGGACTGCTTTTCCTTTAGTGCTAG", "fitted relative affinity": "1.9 z-score"}
{"Strand": "TTAGGTTTCGGCCTCGGTTAGTGCTAG", "fitted relative affinity": "3.21 z-score"}
{"Strand": "TTAGGTTTCGGTCTCGCTTAGTGCTAG", "fitted relative affinity": "6.61 z-score"}
{"Strand": "CATTTTTTTTTTCTACTTCTGTGCTAG", "fitted relative affinity": "3.32 z-score"}
{"Strand": "TCATGTATATACTATATGACTGTGCTA", "fitted relative affinity": "0.681 z-score"}
{"data": "Further values, each from its own experiment"}
{"Substance": "PhoQ, residues 284 288 289 292 302 303 TGYLSA", "target": "PhoP, residues 12 14 15 18 19 IFFTR (Escherichia coli, UniProt P23836)", "assay": "Sort-seq, item: YFP reporter", "system": "E. coli", "conditions": "PhoQ-PhoP variant library, together with: 10 µM Mg2+", "how to read": "relative to: high Mg2+ state, higher = stronger signaling", "endpoint": "fold induction", "result": 0.162}
{"note": "Some of these lines once more (study 2):"}
{"Strand": "ATAAGCCA", "E-score": -0.225}
